Published values pooled from the literature.
Each line is one published result; not all experiments were run side by side.
Organism: Trypanosoma cruzi

| SMILES | assay | test system | conditions | how to read | measurement | value |
| --- | --- | --- | --- | --- | --- | --- |
| COc1ccc(Nc2c(C#N)cnc3ccc(Cl)cc23)cc1 | – | cardiomyocytes, intracellular amastigotes, Y | – | baseline: without hemin over with hemin | IC50 reduction by hemin | 2 fold |
| O=c1cc[s+]([O-])c2ccc(Cl)cc12 (single isomer, unassigned; (+)) | intracellular amastigote growth | U-937, Tulahuen, β-galactosidase transfected | 72 h | – | EC50 | 87.3 µM |
| Cc1cc(C)n2cc(-c3ccccc3)nc2c1 | – | 3T3 host cells, Tulahuen beta-galactosidase | 6 days | – | EC50 | 7.2 µM |
| CCOC(=O)C(NC(=O)CN1C(=O)/C(=C/c2ccc([N+](=O)[O-])cc2)SC1=S)C(C)C (stereo not shown) | parasite growth | Vero, TULAHUEN | 100 µM, intracellular, amastigote | – | inhibition | 21% |
| O=C1CNC(=S)N1 | – | intracellular amastigotes | – | baseline: LLC-MK2 CC50 over amastigote IC50 | selectivity index | 6.74 |
| NNc1nnc(Cl)c2ccccc12 | parasite growth | – | 25 µM, epimastigote | – | inhibition | 10.2% |
| C=C1C(=O)O[C@@H]2C[C@H](C)[C@@H]3C[C@H](O)[C@H](O)[C@@]3(C)C[C@H]12 | cell growth, thymidine uptake | epimastigotes | 1.5 to 50 µg/mL, range over concentrations | – | inhibition | 33 to 99% |
| Cc1ccc2nc(-c3ccccc3)c(CN3CCCC3)n2c1 | parasite growth | Tulahuen beta-galactosidase | concentration not given | – | activity | inactive |
| C[n+]1cc2c3c(ccc2c2ccc4cc5c(cc4c21)OCO5)OCO3 | – | U-2 OS host cells, Y | 72 h, intracellular amastigotes, added: FBS 10% | – | EC50 | 0.4 µM |
| CCC(=O)C[C@@H](O)C[C@@H](C)C[C@H](NC(=O)[C@@H]1C[C@H](C)CN1C(=O)/C=C/[C@@H](C)CC)C(=O)N[C@H](C(=O)NC(C)(C)C(=O)N[C@@H](CC(C)C)C(=O)N[C@@H](CC(C)C)C(=O)NC(C)(C)C(=O)NC(C)(C)C(=O)NCCC(=O)N[C@@H](C)CN(C)C)[C@H](O)C(C)C | – | C2C12, CA-I/72 | – | baseline: CC50 C2C12 over EC50 amastigotes | selectivity index | > 210 |
| Cc1ccc2nc(-c3ccccc3)c(CN3CCN(c4cccc(Cl)c4Cl)CC3)n2c1 | – | 3T3 host cells, Tulahuen beta-galactosidase | 6 days | – | EC50 | 3.31 µM |
| CCCCCCCC1=CC(=O)c2ccccc2S1(=O)=O | intracellular amastigote growth | U-937, Tulahuen, β-galactosidase transfected | 72 h | – | EC50 | 32 µM |
| Cc1ccc2nc(-c3ccccc3)c(CN3CCCCC3)n2c1 | – | 3T3 host cells, Tulahuen beta-galactosidase | 6 days | – | EC50 | 15 µM |
| C#CCO[C@H]1C[C@H]2[C@@H](C)C[C@H]3OC(=O)C(=C)[C@H]3C[C@]2(C)[C@H]1OCC#C | – | epimastigote | – | baseline: CC50 splenocytes over IC50 epimastigotes | selectivity index | 25.2 |
| O=C(Cc1ccccc1)Nc1cc2nc(-c3ccccc3)cn2cn1 | – | 3T3 host cells, Tulahuen beta-galactosidase | 6 days | – | EC50 | 14.2 µM |
| C#CCO[C@H]1C[C@H]2[C@@H](C)C[C@H]3OC(=O)C(=C)[C@H]3C[C@]2(C)[C@H]1O | – | epimastigote | – | baseline: CC50 splenocytes over IC50 epimastigotes | selectivity index | 7.2 |

Some of these lines once more:
| SMILES | assay | test system | conditions | how to read | measurement | value |
| --- | --- | --- | --- | --- | --- | --- |
| CCC(=O)C[C@@H](O)C[C@@H](C)C[C@H](NC(=O)[C@@H]1C[C@H](C)CN1C(=O)/C=C/[C@@H](C)CC)C(=O)N[C@H](C(=O)NC(C)(C)C(=O)N[C@@H](CC(C)C)C(=O)N[C@@H](CC(C)C)C(=O)NC(C)(C)C(=O)NC(C)(C)C(=O)NCCC(=O)N[C@@H](C)CN(C)C)[C@H](O)C(C)C | – | C2C12, CA-I/72 | – | baseline: CC50 C2C12 over EC50 amastigotes | selectivity index | > 210 |
| C#CCO[C@H]1C[C@H]2[C@@H](C)C[C@H]3OC(=O)C(=C)[C@H]3C[C@]2(C)[C@H]1O | – | epimastigote | – | baseline: CC50 splenocytes over IC50 epimastigotes | selectivity index | 7.2 |
| O=C1CNC(=S)N1 | – | intracellular amastigotes | – | baseline: LLC-MK2 CC50 over amastigote IC50 | selectivity index | 6.74 |
